Results pooled from the literature.
Values joined by “and” are separate records of one study, mostly repeats; a detail may differ. ± gives the spread as reported.
Slc6a2: Transporter (Slc6a2, Rattus norvegicus, UniProt Q63380)
Sequence of UniProt P63096 (whole entry, looked up): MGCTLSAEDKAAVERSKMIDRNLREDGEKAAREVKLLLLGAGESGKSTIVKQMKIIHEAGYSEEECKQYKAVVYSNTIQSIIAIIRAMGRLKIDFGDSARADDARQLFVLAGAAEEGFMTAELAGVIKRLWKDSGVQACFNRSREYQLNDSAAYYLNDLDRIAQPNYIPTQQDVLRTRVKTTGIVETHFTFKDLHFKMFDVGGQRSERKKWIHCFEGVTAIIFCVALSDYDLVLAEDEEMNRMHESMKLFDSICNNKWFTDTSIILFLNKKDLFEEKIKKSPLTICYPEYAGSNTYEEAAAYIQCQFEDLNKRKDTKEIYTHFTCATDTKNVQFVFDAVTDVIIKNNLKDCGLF
Sequence of UniProt P35372 (whole entry, looked up): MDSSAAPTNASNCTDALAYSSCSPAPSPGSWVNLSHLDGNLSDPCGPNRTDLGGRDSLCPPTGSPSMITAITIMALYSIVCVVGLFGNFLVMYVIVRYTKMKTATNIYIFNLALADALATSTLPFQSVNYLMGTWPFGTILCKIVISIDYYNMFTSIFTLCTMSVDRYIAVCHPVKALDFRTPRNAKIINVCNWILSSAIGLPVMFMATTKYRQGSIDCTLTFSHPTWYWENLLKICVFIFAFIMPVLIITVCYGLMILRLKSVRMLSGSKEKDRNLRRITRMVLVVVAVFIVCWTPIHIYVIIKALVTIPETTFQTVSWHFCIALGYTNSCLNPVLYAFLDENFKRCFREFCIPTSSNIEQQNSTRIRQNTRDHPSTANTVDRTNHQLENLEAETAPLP
Sequence of UniProt P07550 (whole entry, looked up): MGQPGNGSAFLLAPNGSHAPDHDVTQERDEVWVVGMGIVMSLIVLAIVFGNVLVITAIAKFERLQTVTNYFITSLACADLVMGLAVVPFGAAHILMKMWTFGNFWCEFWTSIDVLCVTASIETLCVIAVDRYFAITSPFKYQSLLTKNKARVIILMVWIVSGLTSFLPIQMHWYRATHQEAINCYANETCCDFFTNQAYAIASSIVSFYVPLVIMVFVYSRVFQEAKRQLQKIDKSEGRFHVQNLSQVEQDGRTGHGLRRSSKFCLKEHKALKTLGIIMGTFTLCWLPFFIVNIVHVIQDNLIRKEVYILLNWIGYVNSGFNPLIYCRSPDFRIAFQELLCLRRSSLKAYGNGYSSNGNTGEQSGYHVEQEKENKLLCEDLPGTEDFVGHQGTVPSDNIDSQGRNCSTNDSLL
Sequence of UniProt P9WI57 (whole entry, looked up): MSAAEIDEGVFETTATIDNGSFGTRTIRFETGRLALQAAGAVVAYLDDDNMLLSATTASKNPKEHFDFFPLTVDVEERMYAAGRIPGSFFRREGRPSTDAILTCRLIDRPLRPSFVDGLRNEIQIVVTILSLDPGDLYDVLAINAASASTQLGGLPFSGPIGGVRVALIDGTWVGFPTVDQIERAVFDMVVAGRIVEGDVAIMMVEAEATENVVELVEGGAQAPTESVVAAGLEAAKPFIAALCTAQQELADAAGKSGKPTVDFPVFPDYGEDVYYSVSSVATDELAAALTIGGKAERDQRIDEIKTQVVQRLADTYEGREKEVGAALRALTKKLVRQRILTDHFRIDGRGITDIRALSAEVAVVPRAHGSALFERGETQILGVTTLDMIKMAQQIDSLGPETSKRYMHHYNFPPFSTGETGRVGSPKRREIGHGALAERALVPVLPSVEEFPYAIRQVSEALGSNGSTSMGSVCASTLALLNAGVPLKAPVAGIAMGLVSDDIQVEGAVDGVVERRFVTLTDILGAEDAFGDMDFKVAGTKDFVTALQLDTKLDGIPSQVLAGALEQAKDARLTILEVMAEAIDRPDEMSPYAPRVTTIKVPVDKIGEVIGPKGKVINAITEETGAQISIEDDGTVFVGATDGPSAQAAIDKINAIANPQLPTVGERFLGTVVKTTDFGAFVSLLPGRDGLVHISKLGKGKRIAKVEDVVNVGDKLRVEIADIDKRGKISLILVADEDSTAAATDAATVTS
Sequence of UniProt O75751 (whole entry, looked up): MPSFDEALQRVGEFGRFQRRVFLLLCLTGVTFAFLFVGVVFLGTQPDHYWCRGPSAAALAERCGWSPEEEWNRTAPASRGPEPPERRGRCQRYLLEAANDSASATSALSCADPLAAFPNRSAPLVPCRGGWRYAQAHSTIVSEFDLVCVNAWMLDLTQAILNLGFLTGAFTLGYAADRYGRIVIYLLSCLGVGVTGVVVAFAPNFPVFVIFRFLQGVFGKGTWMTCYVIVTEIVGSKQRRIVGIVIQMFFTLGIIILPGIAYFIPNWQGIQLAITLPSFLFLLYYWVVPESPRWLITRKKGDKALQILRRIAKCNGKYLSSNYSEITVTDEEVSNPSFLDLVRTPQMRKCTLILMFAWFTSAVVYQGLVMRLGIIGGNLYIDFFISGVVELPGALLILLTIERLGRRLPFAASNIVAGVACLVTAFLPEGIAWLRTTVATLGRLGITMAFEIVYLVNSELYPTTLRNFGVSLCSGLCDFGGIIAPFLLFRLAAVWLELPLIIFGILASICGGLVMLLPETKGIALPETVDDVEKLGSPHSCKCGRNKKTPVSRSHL
Sequence of UniProt P41595 (whole entry, looked up): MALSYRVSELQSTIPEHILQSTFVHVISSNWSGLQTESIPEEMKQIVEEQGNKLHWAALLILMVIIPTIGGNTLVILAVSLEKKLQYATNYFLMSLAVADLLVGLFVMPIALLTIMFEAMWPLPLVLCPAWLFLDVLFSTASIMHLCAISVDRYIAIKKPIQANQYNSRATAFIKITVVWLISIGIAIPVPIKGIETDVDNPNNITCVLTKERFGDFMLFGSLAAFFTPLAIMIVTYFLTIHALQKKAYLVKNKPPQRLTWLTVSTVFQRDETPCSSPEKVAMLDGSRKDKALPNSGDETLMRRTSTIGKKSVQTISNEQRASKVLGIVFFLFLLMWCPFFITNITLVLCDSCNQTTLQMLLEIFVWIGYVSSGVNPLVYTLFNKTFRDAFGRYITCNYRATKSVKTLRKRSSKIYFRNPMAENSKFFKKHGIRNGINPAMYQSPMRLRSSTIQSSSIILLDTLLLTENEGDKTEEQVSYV
Sequence of UniProt Q9RBY6 (whole entry, looked up): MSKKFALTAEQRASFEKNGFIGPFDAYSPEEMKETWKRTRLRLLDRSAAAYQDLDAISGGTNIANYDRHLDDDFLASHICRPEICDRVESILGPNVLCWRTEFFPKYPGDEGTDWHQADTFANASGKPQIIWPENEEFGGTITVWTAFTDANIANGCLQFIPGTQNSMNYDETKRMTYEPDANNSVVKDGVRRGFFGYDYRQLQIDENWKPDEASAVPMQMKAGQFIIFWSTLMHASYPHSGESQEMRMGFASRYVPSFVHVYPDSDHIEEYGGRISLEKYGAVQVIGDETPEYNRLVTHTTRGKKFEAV
Sequence of UniProt Q2T7N4 (whole entry, looked up): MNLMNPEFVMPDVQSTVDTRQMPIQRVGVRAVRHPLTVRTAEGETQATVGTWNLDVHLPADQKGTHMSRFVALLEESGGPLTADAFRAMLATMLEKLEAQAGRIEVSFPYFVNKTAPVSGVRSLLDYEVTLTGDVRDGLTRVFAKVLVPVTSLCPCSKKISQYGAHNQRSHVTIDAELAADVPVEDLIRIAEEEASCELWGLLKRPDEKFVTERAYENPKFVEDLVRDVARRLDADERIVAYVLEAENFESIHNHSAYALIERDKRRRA
Sequence of UniProt P08684 (whole entry, looked up): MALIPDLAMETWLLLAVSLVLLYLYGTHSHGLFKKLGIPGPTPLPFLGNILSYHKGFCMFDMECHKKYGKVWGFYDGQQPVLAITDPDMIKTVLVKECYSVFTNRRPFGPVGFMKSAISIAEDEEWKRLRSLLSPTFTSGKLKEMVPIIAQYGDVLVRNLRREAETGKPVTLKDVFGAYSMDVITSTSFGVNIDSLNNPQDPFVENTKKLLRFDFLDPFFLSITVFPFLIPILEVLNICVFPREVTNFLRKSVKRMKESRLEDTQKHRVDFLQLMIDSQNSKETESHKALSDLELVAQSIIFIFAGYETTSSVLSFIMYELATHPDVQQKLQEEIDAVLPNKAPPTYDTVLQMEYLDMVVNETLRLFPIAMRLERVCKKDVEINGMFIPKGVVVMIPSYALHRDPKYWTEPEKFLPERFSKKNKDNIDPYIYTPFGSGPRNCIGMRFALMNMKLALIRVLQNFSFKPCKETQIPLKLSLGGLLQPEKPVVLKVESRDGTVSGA

SMILES | target | assay | system | setting | measurement | result
CCCCCCCC[C@H]1O[C@H]1C/C=C/C=C/[C@H](O)CC(=O)NC1=C[C@](C)(CC)OC1=O | Na(+)-translocating NADH-quinone reductase subunit B, complex with NqrE D168N (nqrB, Vibrio cholerae serotype O1, UniProt Q9KPS2) | enzyme activity, inhibitor | – | NqrE-D168N mutant | IC50 | < 10 nM
COc1cc(C[C@@H](C)N)c(OC)cc1I | HTR2B (Homo sapiens, UniProt P41595) | agonist | – | – | EC50 | 7.43 ± 2.05 nM
O=C(NC1(C(=O)O)CCCC1)c1ccc(-c2ccc(NC(=O)c3nc(-c4ccccc4)oc3C(F)(F)F)cc2)cc1 | Polyribonucleotide nucleotidyltransferase (pnp, Mycobacterium tuberculosis, UniProt P9WI57) | – | – | – | Ki | 790 ± 46 nM
CNC(C)C(=O)c1ccc2c(c1)OCO2 (stereo not shown) | Slc6a2 | – | – | rat | EC50 | 270 ± 70 nM
O=C(C1CCCCC1)N1CCN(S(=O)(=O)c2cccc3cnccc23)CC1 | Cytochrome P450 3A4 (CYP3A4, Homo sapiens, UniProt P08684) | enzyme activity, inhibitor | human liver microsomes | together with: testosterone | IC50 | < 1000 nM
C[C@]12CC[C@@H](O)C[C@@H]1CC[C@@H]1[C@@H]2CC[C@]2(C)C(=O)CC[C@@H]12 | ADRB2 (Homo sapiens, UniProt P07550) | inhibitor | cells | – | IC50 | 27400 nM and > 20000 nM
Brc1ccc2c(c1)C(c1ccccn1)=NCc1c(-c3cnco3)ncn1-2 | GABA-A receptor benzodiazepine site, rat | radioligand binding | brain homogenate | together with: [3H]flunitrazepam | Ki | 150 ± 31.8 nM
CNC(C)Cc1ccc2c(c1)OCO2 (stereo not shown) | SLC22A3 (Homo sapiens, UniProt O75751) | – | – | – | IC50 | 696000 ± 114000 nM
COC(=O)C(=O)[C@H](C[C@@H]1CCNC1=O)NC(=O)[C@H](CCCCN)NC(=O)[C@H](Cc1ccccc1)NC(=O)OCc1ccccc1 | hip1, N-terminally truncated (Mycobacterium tuberculosis, UniProt P9WHR3) | inhibitor | – | – | Ki | 0.113 nM and 0.101 nM and 0.136 nM
C=C1C(=O)O[C@H]2[C@H]1CC/C(C)=C/CC[C@@]1(C)O[C@@H]21 | GTP cyclohydrolase FolE2 (folE2, Burkholderia thailandensis, UniProt Q2T7N4) | – | – | – | Ki | 21900 ± 4000 nM
Nc1nc2c(ncn2[C@@H]2O[C@H](COP(=O)(O)OP(O)(O)=S)[C@@H](O)[C@H]2O)c(=O)[nH]1 | OPRM1/GNAI1 (Homo sapiens, UniProt P35372+P63096) | MOR-Gi coupling | HEK293F | ratio 1:3 | IC50 | 59.8 nM and 48.6 nM and 44.8 nM
[N-]=[N+]=[N-] | L-threonyl-[L-threonyl-carrier protein] 4-chlorinase (syrB2, Pseudomonas syringae pv. syringae, UniProt Q9RBY6) | binding, UV-vis titration | Pseudomonas syringae | anaerobic, together with: Fe(II) and alpha-ketoglutarate | Kd | 120000 ± 5000 nM
CCCC(NC)C(=O)c1ccc2c(c1)OCO2 (racemic) | Slc6a2 | norepinephrine uptake, inhibitor | rat brain synaptosomes | together with: [3H]norepinephrine 5 nM | IC50 | 1070 ± 110 nM

Excerpt of the above:
SMILES | target | assay | system | setting | measurement | result
CCCC(NC)C(=O)c1ccc2c(c1)OCO2 (racemic) | Slc6a2 | norepinephrine uptake, inhibitor | rat brain synaptosomes | together with: [3H]norepinephrine 5 nM | IC50 | 1070 ± 110 nM
